Measurements from different studies.
Compare with care: the assays were run in different laboratories. Several values in a cell are separate wells, animals, samples, runs or records. ± gives the spread as reported.
UniProt Q9UM07, sequence (whole entry, looked up): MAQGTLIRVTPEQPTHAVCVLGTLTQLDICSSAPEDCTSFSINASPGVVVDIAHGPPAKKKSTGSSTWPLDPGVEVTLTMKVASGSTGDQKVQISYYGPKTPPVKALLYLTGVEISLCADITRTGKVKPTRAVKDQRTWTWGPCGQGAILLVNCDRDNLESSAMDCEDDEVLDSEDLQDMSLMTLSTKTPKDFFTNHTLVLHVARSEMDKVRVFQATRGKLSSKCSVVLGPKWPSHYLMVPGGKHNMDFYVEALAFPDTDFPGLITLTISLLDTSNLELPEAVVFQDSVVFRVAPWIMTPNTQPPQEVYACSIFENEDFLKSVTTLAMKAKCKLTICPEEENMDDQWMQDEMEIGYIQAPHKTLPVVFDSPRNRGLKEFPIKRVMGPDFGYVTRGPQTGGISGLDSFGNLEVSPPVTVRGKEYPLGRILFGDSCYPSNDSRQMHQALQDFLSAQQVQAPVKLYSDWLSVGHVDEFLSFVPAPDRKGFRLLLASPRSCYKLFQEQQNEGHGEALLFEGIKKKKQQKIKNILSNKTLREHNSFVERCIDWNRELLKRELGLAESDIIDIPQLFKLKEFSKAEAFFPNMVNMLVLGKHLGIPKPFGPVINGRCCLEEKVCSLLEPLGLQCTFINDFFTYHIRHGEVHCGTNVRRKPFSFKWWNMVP
UniProt P33533, sequence (whole entry, looked up): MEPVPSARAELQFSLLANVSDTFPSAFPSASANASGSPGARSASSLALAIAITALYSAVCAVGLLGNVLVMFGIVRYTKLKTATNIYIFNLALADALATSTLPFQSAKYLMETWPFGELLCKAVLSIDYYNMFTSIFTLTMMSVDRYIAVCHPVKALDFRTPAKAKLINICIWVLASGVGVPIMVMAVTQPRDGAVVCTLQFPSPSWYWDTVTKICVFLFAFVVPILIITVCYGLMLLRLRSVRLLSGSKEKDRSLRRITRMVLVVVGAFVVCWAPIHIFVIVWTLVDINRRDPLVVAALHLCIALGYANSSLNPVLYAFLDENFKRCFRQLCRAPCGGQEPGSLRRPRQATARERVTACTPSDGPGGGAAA
UniProt Q8IYT8, sequence (whole entry, looked up): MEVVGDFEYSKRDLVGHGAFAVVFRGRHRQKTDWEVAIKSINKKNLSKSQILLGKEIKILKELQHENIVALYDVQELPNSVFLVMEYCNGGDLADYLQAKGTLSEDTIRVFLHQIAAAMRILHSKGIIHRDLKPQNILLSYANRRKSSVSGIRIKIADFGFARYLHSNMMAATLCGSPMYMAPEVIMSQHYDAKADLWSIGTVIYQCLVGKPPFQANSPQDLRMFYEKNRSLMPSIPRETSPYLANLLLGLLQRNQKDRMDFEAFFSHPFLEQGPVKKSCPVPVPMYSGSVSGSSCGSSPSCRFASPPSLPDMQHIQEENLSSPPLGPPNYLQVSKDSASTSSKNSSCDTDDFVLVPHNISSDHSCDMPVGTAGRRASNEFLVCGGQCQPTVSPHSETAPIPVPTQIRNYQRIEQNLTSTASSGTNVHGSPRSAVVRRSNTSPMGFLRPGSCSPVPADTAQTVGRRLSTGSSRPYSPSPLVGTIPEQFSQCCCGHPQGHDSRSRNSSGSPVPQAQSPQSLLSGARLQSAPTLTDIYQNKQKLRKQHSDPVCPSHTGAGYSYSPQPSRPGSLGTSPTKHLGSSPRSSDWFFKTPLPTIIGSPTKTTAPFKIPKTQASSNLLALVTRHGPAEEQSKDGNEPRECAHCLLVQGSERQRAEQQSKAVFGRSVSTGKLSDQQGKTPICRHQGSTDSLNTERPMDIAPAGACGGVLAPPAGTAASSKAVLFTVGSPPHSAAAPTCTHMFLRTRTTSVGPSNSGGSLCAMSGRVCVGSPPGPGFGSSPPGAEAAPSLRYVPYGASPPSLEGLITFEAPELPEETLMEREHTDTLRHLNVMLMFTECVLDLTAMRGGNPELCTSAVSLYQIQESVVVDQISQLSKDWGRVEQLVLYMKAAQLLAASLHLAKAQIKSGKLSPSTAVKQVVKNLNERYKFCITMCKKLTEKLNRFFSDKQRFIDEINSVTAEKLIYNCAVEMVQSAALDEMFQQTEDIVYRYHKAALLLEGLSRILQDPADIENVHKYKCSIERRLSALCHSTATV
UniProt Q13464, sequence (whole entry, looked up): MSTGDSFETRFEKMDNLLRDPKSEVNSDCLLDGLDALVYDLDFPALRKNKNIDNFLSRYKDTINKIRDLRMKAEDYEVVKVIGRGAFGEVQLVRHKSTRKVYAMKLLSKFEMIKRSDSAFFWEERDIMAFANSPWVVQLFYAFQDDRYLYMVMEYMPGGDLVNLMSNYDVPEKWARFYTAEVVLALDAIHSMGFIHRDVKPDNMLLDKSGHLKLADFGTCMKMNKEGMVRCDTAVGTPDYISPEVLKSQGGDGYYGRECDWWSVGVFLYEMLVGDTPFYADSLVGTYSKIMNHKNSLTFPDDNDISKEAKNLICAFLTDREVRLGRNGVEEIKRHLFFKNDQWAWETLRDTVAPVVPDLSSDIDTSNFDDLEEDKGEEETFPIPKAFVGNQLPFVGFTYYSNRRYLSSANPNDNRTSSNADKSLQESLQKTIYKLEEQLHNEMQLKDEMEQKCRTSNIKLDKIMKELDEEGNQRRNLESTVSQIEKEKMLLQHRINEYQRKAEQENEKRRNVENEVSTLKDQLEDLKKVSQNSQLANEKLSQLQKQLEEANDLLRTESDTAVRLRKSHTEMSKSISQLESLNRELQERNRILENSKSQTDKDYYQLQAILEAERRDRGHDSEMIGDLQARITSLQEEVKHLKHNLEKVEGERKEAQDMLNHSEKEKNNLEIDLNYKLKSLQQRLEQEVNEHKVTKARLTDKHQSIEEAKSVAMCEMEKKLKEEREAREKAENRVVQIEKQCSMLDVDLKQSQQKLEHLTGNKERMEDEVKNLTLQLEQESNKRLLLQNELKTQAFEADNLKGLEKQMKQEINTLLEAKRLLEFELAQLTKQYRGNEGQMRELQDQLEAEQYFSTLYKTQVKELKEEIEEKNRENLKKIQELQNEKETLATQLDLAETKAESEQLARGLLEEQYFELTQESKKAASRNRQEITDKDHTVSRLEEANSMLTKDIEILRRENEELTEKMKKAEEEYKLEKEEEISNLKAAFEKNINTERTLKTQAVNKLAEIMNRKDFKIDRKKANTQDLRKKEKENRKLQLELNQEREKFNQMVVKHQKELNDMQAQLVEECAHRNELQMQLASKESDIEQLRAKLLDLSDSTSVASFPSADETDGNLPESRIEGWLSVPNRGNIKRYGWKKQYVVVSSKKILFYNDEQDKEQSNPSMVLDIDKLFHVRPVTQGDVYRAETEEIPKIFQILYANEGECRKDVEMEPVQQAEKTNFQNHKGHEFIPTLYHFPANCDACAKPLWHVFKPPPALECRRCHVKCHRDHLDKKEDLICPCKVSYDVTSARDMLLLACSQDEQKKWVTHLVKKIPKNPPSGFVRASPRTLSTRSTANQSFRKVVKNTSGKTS
UniProt Q8IVT5, sequence (whole entry, looked up): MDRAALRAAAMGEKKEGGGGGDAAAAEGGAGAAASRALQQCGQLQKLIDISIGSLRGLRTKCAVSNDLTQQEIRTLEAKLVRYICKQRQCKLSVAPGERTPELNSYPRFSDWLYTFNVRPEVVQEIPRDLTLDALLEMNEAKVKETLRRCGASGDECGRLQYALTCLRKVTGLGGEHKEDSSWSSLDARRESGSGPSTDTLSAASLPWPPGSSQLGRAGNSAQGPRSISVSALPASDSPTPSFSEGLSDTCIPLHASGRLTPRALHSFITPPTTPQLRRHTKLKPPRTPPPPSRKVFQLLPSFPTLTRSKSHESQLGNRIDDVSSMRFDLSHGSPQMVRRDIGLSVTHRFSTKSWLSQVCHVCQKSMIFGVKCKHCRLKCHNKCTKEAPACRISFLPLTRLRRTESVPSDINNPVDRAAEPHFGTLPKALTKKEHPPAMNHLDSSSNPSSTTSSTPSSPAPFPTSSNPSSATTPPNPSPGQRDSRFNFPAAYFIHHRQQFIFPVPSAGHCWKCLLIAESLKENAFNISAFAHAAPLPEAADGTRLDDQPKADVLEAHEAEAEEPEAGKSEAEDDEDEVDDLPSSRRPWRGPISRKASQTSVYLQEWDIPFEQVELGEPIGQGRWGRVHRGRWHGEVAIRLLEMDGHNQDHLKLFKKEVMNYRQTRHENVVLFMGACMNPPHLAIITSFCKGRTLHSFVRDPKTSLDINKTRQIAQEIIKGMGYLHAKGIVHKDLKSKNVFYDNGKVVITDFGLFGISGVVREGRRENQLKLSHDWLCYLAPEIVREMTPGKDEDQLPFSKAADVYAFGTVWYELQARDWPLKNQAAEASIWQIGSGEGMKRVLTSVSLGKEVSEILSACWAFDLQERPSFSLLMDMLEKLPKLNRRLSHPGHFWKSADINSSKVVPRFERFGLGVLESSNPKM
UniProt Q9QYR9, sequence (whole entry, looked up): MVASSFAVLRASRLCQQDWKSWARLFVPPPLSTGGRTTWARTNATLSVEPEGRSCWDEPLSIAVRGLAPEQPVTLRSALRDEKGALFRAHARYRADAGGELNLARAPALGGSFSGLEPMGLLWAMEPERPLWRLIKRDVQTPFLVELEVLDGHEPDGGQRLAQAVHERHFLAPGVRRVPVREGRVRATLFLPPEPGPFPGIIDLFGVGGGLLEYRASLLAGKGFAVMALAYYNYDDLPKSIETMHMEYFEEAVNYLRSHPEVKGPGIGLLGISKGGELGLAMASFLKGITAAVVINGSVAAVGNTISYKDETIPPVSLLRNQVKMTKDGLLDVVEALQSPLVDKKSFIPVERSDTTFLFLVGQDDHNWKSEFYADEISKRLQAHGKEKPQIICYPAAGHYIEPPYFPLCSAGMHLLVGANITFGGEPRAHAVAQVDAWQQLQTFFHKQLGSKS
UniProt P00761, sequence (whole entry, looked up): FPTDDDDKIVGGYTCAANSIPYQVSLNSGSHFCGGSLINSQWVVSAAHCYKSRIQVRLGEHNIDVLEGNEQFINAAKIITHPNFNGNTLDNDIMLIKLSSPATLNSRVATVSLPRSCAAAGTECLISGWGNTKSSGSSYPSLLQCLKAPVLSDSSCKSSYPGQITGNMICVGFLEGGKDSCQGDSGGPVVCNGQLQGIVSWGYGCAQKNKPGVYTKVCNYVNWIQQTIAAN

SMILES	target or system	assay	system	setting	how to read	endpoint	value
N[C@H](C(=O)N1CCCC1)C1CCN(c2nccc3c(-c4ncc(Cl)cc4Cl)cccc23)CC1	Protein-arginine deiminase type-4 (PADI4, Homo sapiens, UniProt Q9UM07)	thermal shift		0.3009 µM		melting temperature	53.5 °C and 53.3 °C
CS(C)(=O)=Nc1ccc(-c2ccc(-c3nc4cc(O[C@@H]5CO[C@H]6[C@@H]5OC[C@H]6O)[nH]c4cc3F)cc2)cc1	Ephrin type-A receptor 7 (EPHA7, Homo sapiens, UniProt Q15375)	enzyme activity, inhibitor		10 µM		inhibition	1%
OB(O)c1ccc(OCc2ccccc2)nc1F	Trypsin (Sus scrofa, UniProt P00761)				baseline: Ki trypsin over Ki AmpC	selectivity ratio	> 27800
CC(=O)N[C@H]1[C@@H](O)[C@H](O)[C@@H](CO)O[C@H]1O	N-acetylmannosamine kinase (nanK, Haemophilus influenzae, UniProt Q4QP43, T131V)	binding				ΔH	-4.02 ± 0.277 kcal/mol
O=C1NC(=O)c2c1c1cc(F)c[n+]3c1c1c2c2cc(O)ccc2[n]1[Ru-4]312([N]=C=S)[S+]3CC[S+]1CC[S+]2CC3 (stereo not drawn)	Serine/threonine-protein kinase TBK1 (TBK1, Homo sapiens, UniProt Q9UHD2)	enzyme activity		100 nM, human enzyme, together with: 10 µM ATP	baseline: untreated	remaining activity	40%
O=C1NC2(CC2)COc2ncc(F)cc2[C@H]2COCCN2c2ccn3ncc1c3n2			Sprague-Dawley rat, male, epididymides	oral, 20 mg/kg/day, end of recovery, 4-week repeated-dose toxicity		epididymis weight	1.37 ± 0.085 g
CN(C)CCCSC(=S)N1CCN(C(=O)/C=C/c2coc3ccccc3c2=O)CC1	Nucleoprotein (N, Tomato spotted wilt virus, UniProt P25999, R94A)	binding, microscale thermophoresis		0.061 µM	dose series	MST response	842 a.u.
CCOC(=O)[C@@H]1Cc2c(cc([N+](=O)[O-])cc2[N+](=O)[O-])[C@H](O)[C@]12C(=O)Nc1ccc(Br)cc12	Serine/threonine-protein kinase ULK2 (ULK2, Homo sapiens, UniProt Q8IYT8)	binding, competition with immobilised ligand		0.1 µM		remaining binding	100%
CCCC[C@H]1CNCCN1C[C@@H]1CCCN1C[C@@H](Cc1ccc2ccccc2c1)N1CCN(CCC23CC4CC(CC(C4)C2)C3)[C@H]([C@H](C)CC)C1	Delta-type opioid receptor (Oprd1, Rattus norvegicus, UniProt P33533)	radioligand binding	rat brain membranes	500 nM, pH 7.5, 25 °C, together with: 2 nM [3H]DPDPE		remaining binding	89.7%
CC(C)[C@H]1NC(=O)C[C@H]2/C=C/CCSSC[C@@H](NC1=O)C(=O)N[C@H](Cc1cccc3ccccc13)C(=O)NCC(=O)O2	Rho-associated protein kinase 1 (ROCK1, Homo sapiens, UniProt Q13464)	enzyme activity, inhibitor		10 µM		inhibition	-5%
COc1c(N2CC3CCCNC3C2)c(F)cc2c(=O)c(C(=O)OCc3cnc([N+](=O)[O-])n3C)cn(C3CC3)c12 (stereo not drawn)	Oxygen-insensitive NAD(P)H nitroreductase (nfsB, Escherichia coli K-12, UniProt P38489)	substrate		together with: NADH 100 µM		initial rate	0.08 ± 0.003 µM/min
N[C@@H](Cc1ccccc1)P(=O)(O)O	PAL1 (Petroselinum crispum, UniProt P24481, Y110F)	binding, ITC				ΔH	-8.5 kcal/mol
O=S(=O)(F)c1cccc(S(=O)(=O)Nc2ccc(C3CC3)c(F)c2)c1	GTPase KRas (KRAS, Homo sapiens, UniProt P01116)	enzyme activity, inhibitor				kinact	2.5e-05 s⁻¹
CN(C)[C@H]1C[C@@]23CC[C@@]4(O2)C(=CC[C@]2(C)[C@@H](c5ccc6ccncc6c5)CC[C@H]24)C=C3[C@@H](O)[C@@H]1O	Kinase suppressor of Ras 1 (KSR1, Homo sapiens, UniProt Q8IVT5)	ATP probe labelling, inhibitor, KiNativ profiling		0.1 µM		inhibition	13.9%
COCC1CCCCN1C(=O)n1cc(C(O)(c2ccccc2)c2ccccc2)nn1 (stereo not drawn)	Acyl-coenzyme A thioesterase 2, mitochondrial (Acot2, Mus musculus, UniProt Q9QYR9)	probe labelling, inhibitor, competitive ABPP-SILAC, measured: Acot2	mouse T cells	concentration not given, 4 h, protein level	baseline: treated over DMSO cells, lower = stronger inhibition	SILAC activity ratio	1.08
